Measured values pooled from the literature.
Numbered parts are unrelated; each lists some results of a single study.
Sequence of UniProt O75676 (whole entry, looked up): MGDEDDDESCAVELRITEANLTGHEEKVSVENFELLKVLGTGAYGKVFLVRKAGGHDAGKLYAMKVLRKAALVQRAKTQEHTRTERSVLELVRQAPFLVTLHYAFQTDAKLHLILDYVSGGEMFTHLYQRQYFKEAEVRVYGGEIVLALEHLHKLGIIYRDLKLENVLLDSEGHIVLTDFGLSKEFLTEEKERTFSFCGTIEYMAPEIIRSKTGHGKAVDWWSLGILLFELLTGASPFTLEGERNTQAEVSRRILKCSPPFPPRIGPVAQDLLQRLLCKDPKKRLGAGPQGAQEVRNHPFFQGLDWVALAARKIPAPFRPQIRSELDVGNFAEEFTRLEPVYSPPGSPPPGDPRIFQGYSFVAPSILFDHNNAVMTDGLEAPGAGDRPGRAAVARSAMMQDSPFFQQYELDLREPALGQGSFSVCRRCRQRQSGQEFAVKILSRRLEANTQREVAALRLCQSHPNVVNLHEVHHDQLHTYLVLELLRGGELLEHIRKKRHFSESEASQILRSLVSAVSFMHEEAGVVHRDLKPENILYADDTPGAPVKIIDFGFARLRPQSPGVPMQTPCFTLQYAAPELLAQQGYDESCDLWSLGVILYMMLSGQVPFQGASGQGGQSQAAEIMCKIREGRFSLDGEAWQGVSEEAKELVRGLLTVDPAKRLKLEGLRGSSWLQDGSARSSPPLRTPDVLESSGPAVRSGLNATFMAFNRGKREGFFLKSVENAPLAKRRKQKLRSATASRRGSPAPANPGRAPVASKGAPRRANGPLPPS
Sequence of UniProt Q00526 (whole entry, looked up): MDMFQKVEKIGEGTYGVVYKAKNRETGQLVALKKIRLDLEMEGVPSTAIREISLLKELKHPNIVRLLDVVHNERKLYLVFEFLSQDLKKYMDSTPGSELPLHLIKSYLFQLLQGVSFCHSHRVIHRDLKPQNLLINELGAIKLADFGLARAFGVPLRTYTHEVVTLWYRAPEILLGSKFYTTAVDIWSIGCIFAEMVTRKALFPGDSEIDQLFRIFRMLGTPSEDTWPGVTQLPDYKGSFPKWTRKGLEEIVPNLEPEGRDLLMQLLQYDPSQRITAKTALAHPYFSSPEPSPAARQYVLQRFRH
Sequence of UniProt P42681 (whole entry, looked up): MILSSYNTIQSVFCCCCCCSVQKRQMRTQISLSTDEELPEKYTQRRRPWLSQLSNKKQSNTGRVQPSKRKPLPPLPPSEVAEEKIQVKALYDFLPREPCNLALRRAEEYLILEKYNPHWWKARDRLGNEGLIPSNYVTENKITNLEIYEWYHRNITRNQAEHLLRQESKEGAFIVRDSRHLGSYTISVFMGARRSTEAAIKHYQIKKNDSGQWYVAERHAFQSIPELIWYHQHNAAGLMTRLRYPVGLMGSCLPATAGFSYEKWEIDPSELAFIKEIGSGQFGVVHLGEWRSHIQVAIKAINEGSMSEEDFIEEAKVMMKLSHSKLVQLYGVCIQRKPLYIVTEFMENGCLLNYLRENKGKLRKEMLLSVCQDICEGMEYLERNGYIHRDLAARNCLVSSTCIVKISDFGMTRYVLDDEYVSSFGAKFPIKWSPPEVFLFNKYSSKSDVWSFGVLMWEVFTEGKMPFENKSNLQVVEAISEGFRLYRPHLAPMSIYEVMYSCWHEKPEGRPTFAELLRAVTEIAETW
Sequence of UniProt P31751 (whole entry, looked up): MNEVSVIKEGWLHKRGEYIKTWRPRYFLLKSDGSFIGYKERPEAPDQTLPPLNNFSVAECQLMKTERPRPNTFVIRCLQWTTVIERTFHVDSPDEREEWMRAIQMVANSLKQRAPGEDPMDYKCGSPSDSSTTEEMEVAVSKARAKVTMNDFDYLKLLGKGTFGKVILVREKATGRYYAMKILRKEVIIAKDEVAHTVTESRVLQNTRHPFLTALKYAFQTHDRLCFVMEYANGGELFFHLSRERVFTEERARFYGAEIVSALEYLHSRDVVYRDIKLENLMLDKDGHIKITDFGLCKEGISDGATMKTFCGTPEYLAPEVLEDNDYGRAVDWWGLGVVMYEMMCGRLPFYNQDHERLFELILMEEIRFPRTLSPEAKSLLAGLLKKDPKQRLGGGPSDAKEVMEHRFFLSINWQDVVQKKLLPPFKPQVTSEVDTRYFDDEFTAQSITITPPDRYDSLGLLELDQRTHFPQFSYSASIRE
Sequence of UniProt P32298 (whole entry, looked up): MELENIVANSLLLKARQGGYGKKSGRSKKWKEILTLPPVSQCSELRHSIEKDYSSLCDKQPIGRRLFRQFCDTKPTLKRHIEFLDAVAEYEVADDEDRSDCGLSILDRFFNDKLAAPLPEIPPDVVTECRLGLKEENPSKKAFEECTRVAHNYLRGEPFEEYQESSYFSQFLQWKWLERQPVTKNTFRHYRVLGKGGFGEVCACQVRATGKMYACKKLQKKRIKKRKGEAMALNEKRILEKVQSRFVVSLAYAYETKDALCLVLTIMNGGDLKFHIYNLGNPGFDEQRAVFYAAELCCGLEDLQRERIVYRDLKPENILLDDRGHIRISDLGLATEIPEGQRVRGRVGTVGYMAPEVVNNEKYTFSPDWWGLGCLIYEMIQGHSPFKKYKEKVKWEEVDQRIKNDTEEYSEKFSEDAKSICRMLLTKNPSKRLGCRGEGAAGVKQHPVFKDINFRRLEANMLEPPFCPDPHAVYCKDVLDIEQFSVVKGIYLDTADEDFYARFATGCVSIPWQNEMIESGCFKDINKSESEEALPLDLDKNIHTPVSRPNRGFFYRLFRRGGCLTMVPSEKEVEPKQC
Sequence of UniProt P48736 (whole entry, looked up): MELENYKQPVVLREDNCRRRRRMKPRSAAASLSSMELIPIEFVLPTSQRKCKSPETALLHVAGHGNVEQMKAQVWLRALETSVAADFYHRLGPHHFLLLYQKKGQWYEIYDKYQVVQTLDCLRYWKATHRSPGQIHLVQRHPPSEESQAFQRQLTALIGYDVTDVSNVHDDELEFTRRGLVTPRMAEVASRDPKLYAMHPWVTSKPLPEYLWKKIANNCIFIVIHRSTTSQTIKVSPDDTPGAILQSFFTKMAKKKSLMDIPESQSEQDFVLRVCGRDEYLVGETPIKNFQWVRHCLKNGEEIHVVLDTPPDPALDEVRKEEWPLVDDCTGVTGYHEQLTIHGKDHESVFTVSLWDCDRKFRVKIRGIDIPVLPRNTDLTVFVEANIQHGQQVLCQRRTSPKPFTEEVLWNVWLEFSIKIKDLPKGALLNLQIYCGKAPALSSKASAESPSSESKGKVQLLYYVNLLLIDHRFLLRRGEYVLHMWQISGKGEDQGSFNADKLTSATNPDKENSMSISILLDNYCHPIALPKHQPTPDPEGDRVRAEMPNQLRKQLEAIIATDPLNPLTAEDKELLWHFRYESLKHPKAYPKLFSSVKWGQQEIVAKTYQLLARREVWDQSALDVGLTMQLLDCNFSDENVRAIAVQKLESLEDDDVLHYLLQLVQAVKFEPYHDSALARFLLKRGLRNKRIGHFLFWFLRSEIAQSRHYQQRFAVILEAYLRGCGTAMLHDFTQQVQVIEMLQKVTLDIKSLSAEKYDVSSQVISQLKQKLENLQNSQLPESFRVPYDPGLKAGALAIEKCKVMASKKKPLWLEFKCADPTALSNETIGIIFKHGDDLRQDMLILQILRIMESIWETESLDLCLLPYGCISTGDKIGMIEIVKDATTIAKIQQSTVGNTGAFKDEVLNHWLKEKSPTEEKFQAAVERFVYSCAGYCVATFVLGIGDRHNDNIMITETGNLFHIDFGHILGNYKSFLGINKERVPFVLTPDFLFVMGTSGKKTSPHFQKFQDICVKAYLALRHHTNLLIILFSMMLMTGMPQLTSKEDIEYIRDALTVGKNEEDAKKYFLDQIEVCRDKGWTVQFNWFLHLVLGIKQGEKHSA
Sequence of UniProt Q96L34 (whole entry, looked up): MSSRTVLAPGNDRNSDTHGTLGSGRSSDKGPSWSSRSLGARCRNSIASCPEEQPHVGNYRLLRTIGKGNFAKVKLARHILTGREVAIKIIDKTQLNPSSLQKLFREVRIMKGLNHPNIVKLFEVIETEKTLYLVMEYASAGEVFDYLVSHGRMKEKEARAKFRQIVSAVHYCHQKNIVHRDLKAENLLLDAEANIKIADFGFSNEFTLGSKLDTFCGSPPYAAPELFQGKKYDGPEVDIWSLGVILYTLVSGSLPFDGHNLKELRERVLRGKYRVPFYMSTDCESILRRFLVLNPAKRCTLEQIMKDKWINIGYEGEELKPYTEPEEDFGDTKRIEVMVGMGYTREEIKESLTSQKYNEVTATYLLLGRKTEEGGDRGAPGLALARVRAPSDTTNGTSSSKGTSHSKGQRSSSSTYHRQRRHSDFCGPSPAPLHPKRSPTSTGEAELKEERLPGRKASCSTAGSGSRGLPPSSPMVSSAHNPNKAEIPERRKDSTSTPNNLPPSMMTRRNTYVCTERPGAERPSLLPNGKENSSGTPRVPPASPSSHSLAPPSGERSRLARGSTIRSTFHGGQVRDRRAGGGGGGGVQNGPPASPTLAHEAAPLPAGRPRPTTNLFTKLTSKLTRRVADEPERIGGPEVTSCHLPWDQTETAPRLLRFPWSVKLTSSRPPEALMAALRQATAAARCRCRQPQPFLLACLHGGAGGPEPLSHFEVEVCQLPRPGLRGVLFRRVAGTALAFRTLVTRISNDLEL
Sequence of UniProt Q8TBX8 (whole entry, looked up): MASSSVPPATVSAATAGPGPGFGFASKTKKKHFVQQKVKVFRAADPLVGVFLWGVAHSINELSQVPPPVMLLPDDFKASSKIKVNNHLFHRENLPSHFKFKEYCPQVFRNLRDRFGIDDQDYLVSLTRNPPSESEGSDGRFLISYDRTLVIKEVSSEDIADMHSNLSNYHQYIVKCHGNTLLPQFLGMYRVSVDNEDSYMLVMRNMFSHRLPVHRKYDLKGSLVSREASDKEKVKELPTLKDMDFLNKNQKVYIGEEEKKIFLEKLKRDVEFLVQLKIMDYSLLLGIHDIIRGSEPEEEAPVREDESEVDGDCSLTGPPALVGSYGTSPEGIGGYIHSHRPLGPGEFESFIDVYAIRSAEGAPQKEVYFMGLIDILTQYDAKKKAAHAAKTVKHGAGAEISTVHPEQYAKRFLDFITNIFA

Series 1
SMILES: CC(C)n1cnc(-c2ccc(F)cc2)c1-c1ncc(C(=O)Nc2ccc(N3CCN(C)CC3)cc2)[nH]1
Technique: phase 2a trial
Host: idiopathic pulmonary fibrosis patients
conditions | patients with cough
dose not given, adverse event grade 3, all dose arms pooled | 0%
60 mg once daily, adverse event grade 4 | 0%
60 mg once daily, adverse event grade 5 | 0%
dose not given, adverse event grade 4, all dose arms pooled | 0%
60 mg once daily, adverse event grade 3 | 0%

Series 2
Compound: CCOC(=O)c1cc2cc(-c3cc(C(=O)NCc4ccc(C(=O)O)cc4)nn3C)ccc2[nH]1
Effect on: cell-free assay
Technique: competition with immobilised ligand
Tested at: 0.1 µM
target | remaining binding [%]
PIP4K2C (Homo sapiens, UniProt Q8TBX8) | 95
PIK3CG (Homo sapiens, UniProt P48736) | 90
OXSR1 (Homo sapiens, UniProt O95747) | 100
EPHB6 (Homo sapiens, UniProt O15197) | 77
KIT (Homo sapiens, UniProt P10721, D816H) | 75
CDK3 (Homo sapiens, UniProt Q00526) | 43

Series 3
Host: mouse
Sample: microsomes or S9
Tested at: 2 µM
Time: 0.5 h
Structure (SMILES) | remaining compound [%]
CCOC(=O)C(Cc1ccccc1)(NC(C)=O)C(=O)OCC | 64.1
Cc1c(C)c(C)c(CNC(=O)C2CNC(=O)C2)c(C)c1C (stereo not drawn) | 45.6
Cc1cccc(/N=c2/ncc3c([nH]2)CC(c2ccc(F)cc2)CC3=O)c1 (stereo not drawn) | 6.28
O=S(=O)(Nc1ccc2[nH]ncc2c1)c1cc(Cl)c(Cl)cc1Cl | 98.3
c1csc(COc2ccc(CNn3cnnc3)cc2)c1 | 56
COc1ccc(-c2noc(CC(=O)NCc3ccccc3)c2-c2ccc(OC)cc2)cc1 | 0.652
Cc1nn(-c2ccc(F)c(Cl)c2)c(=O)cc1-c1cccc(N2CCCC2=O)c1 | 35.7
CNC(=O)c1cc(Cl)cc(C)c1NC(=O)c1ncc2cccn2c1-c1cnccc1Br | 50.2

Series 4
Compound: CCOc1cc2ncnc(Nc3cccc(Br)c3)c2cc1OCC
Effect on: enzyme activity
Action: inhibitor
Tested at: 0.5 µM
Relative to: control
target | remaining activity
PNCK (Homo sapiens, UniProt Q6P2M8) | 103%
CDC42BPB (Homo sapiens, UniProt Q9Y5S2) | 107%
CLK3 (Homo sapiens, UniProt P49761) | 85.3%
KDR (Homo sapiens, UniProt P35968) | 92%
MAPK14 (Homo sapiens, UniProt Q16539) | 87.5%
AKT2 (Homo sapiens, UniProt P31751) | 87.6%
MAPK11 (Homo sapiens, UniProt Q15759) | 89%
GRK4 (Homo sapiens, UniProt P32298) | 96.2%
RPS6KA4 (Homo sapiens, UniProt O75676) | 95.4%
MARK4 (Homo sapiens, UniProt Q96L34) | 99.2%
ROCK1 (Homo sapiens, UniProt Q13464) | 98.8%
MAPK1 (Homo sapiens, UniProt P28482) | 104%
MINK1 (Homo sapiens, UniProt Q8N4C8) | 77.8%
TXK (Homo sapiens, UniProt P42681) | 80.2%

Repeated from above (series 3):
Structure (SMILES) | remaining compound [%]
Cc1c(C)c(C)c(CNC(=O)C2CNC(=O)C2)c(C)c1C (stereo not drawn) | 45.6
CCOC(=O)C(Cc1ccccc1)(NC(C)=O)C(=O)OCC | 64.1
Cc1cccc(/N=c2/ncc3c([nH]2)CC(c2ccc(F)cc2)CC3=O)c1 (stereo not drawn) | 6.28
O=S(=O)(Nc1ccc2[nH]ncc2c1)c1cc(Cl)c(Cl)cc1Cl | 98.3
c1csc(COc2ccc(CNn3cnnc3)cc2)c1 | 56
